# Results collected from several papers.
# “And” joins repeats or separate records; there may be more than shown. Numbers after ± are the reported error.
SMILES,assay,test system,setting,CL/F
Cc1cc(/C=C/C#N)cc(C)c1Nc1ccnc(Nc2ccc(C#N)cc2)n1,,"human, haemodialysis patients","oral, steady state, fixed-dose combination",17.7 L/h
C=C[C@@H]1C[C@]1(NC(=O)[C@@H]1C[C@@H](Oc2ncc(OC)c3ccc(Cl)cc23)CN1C(=O)[C@@H](NC(=O)OC(C)(C)C)C(C)(C)C)C(=O)NS(=O)(=O)C1CC1,population PK base model,human,,50.1 L/h
NC(=S)NN=Cc1ncccc1N,,"human, plasma","oral, single dose",105 L/h
CC[C@@H]1CN(C(=O)NCC(F)(F)F)C[C@@H]1c1cnc2cnc3[nH]ccc3n12,population PK model,"human, plasma",,40.9 L/h
CC1(C)CC[C@]2(NC(=O)C(C)(F)F)CC[C@]3(C)[C@H](C(=O)C=C4[C@@]5(C)C=C(C#N)C(=O)C(C)(C)[C@@H]5CC[C@]43C)[C@@H]2C1,,"human, plasma","oral, 150 mg single dose, alone, geometric mean",104 L/h
C=CC(=O)NC1CCN(c2ncc3ncnc(Nc4ccc(Oc5ccc6c(c5)ncn6C)c(C)c4)c3n2)CC1,,"human, plasma","oral, 240 mg single dose, fed, geometric mean",7.44 L/h
COC(=O)N[C@@H](C)CNc1nccc(-c2cn(C(C)C)nc2-c2cc(Cl)cc(NS(C)(=O)=O)c2F)n1,,"human, plasma","50 mg, single dose, arithmetic mean, together with: posaconazole 400 mg twice daily",9.2 L/h and 9.15 L/h
COC(=O)N[C@H](C(=O)N1CCC[C@H]1c1nc(-c2ccc(-c3ccc(-c4c[nH]c([C@@H]5CCCN5C(=O)[C@@H](NC(=O)OC)C(C)C)n4)cc3)cc2)c[nH]1)C(C)C,population PK full model,human,,5.14 L/h
CC(C)c1nc(N(C)S(C)(=O)=O)nc(-c2ccc(F)cc2)c1/C=C/[C@@H](O)C[C@@H](O)CC(=O)O,,human,"oral, substrate with omaveloxolone, together with: omaveloxolone once daily",414 L/h
Cn1c(=O)oc2ccc(-c3ccc(C[C@@H](C#N)NC(=O)[C@@H]4CNCCCO4)cc3)cc21,,"human, mild renal impairment, plasma","oral, 25 mg single dose, mean",7.72 L/h
Cc1ncnc2c1ccn2[C@@H]1C[C@H](Oc2cc(C(F)F)c(F)c3c2CNCC3)[C@@H](O)[C@H]1O,,human,"4 mg twice daily, multiple dose, geometric mean",9.16 L/h
Cn1cncc1[C@@](N)(c1ccc(Cl)cc1)c1ccc2c(c1)c(-c1cccc(Cl)c1)cc(=O)n2C,,"human, male, plasma","oral, across dose levels",630 mL/min/m²
C[C@@H](Oc1ccc(S(C)(=O)=O)cc1C(=O)N1C[C@@H]2C[C@]2(c2cc(C(F)(F)F)on2)C1)C(F)(F)F,,"healthy human volunteers, fasted","oral, 10 mg single, geometric mean",4.97 L/h
Cc1cc(C)c(CNC(=O)c2cc(Cl)c3c(c2C)O[C@@](C)([C@H]2CC[C@H](N(C)C)CC2)O3)c(=O)[nH]1,population PK model,human,,520 L/h
CN(C)C(=O)c1cc2cnc(Nc3ccc(N4CCNCC4)cn3)nc2n1C1CCCC1,,"human, normal renal function","oral, 400 mg, single dose, adjusted geometric mean",71.8 L/h
C[C@@H](Cn1ccc(-c2ccc(C#N)c(Cl)c2)n1)NC(=O)c1cc([C@@H](C)O)[nH]n1,,"human, fasted, plasma","oral solution, 300 mg 14C-darolutamide, geometric mean",21.2 L/h
C[C@H](Oc1ccc(Br)cc1-c1ccon1)C(=O)O,,"healthy male humans, plasma","oral, 200 mg once daily, day 10",4.99 L/h
Cn1cc(-c2cn3nccc3c(-c3cnn([C@]4(CC#N)C[C@@H](C#N)C4)c3)n2)cn1,,"healthy human, plasma","30 mg once daily, day 10, multiple dose, fed, geometric mean",39.9 L/h
CC1(COc2ccc3c(c2)ncn3-c2ccc3cccc(N4CCC(N)CC4)c3n2)COC1,,"human patients, recurrent/progressive HGG or DIPG, serum","oral, 100 mg/m^2, day 28, median",15 L/h/m²
C=CC(=O)N1C[C@H](Nc2ncnc3[nH]ccc23)CC[C@@H]1C,,human,"oral, 50 mg single dose, alone without rifampicin",111 L/h
CNC(=O)c1c(C)oc2cc(Oc3ncnc4cc(OC)c(OC)cc34)ccc12,,"healthy human subjects, plasma","oral, 5 mg, arithmetic mean, together with: dabigatran etexilate 150 mg",0.966 L/h
CC(C)c1nc(N(C)S(C)(=O)=O)nc(-c2ccc(F)cc2)c1/C=C/[C@@H](O)C[C@@H](O)CC(=O)O,,"human, plasma","20 mg, day 2, mean, alone",498 L/h
N#CN1C[C@H](n2nc(-c3ccc(Oc4ccc(Cl)cn4)cc3)c(C(N)=O)c2N)CCC12CC2,,human fasted,"oral, 600 mg",31.4 ± 14.1 L/h
CN1C(=O)[C@@H](NC(=O)c2nnc(Cc3ccccc3)[nH]2)COc2cccnc21,,"healthy human, fasted, plasma","oral, 10 mg single dose, geometric mean",5.55 L/h
N#CCNC(=O)c1ccc(-c2ccnc(Nc3ccc(N4CCOCC4)cc3)n2)cc1,population PK model,human,,64.7 L/h
C[C@@H](Oc1cc(-c2cnn(C3CCNCC3)c2)cnc1N)c1c(Cl)ccc(F)c1Cl,,"human patients, plasma","oral, cycle 2 day 1, median, together with: avelumab",75 L/h
C[C@@H](Oc1ccc(S(C)(=O)=O)cc1C(=O)N1C[C@@H]2C[C@]2(c2cc(C(F)(F)F)on2)C1)C(F)(F)F,,healthy young humans,"oral, 50 mg single dose",5.34 L/h
CCN1CCN(Cc2ccc(Nc3ncc(F)c(-c4cc(F)c5nc6n(c5c4)[C@H](C)CCC6)n3)nc2)CC1,,"human, Phase Ib patients, plasma","300 mg, multiple doses, mean, together with: fulvestrant",43.6 L/h
N#Cc1ccc2c(c1)[C@H]1CCCN(C(=O)c3ccc4[nH]cnc4c3)[C@H]1C2,,human,"80 mg once daily, day 1",2.67 L/h
Cc1ccc(C(=O)NC2CC2)cc1-n1ncc(C(=O)c2cccc(C#N)c2)c1N,,human,mass balance study,3.9 L/h
CC(C)Nc1nc2cc(Cl)c(Cl)cc2n1[C@H]1O[C@@H](CO)[C@H](O)[C@@H]1O,population PK model (NONMEM),"human, 70 kg, no CMV",no CYP3A4 inhibitor/inducer,3.94 L/h
O=C(O)CCC(=O)O.[2H]C([2H])([2H])Oc1cc(C)c2[nH]ccc2c1CN1CC[C@@H](C2CC2)C[C@H]1c1ccc(C(=O)O)cc1,"LC-MS/MS, mean","human, plasma","600 mg, single dose, fasting",2.78 L/h
C#C[C@]1(CO)O[C@@H](n2cnc3c(N)nc(F)nc32)C[C@@H]1O,,"human, plasma","oral, 400 mg, single dose, geometric mean",27.8 L/h
CCOc1cc([C@@H](CS(C)(=O)=O)N2C(=O)c3cccc(NC(C)=O)c3C2=O)ccc1OC,,healthy human,"oral, 30 mg",12.1 L/h
Cc1ccc(=O)n(-c2ccccc2)c1,,healthy human,"oral, 600 mg single, alone",15.2 L/h
CNC(=O)n1ccc2cc(Oc3ccnc(NC(=O)c4ccc(C5CCN(CCO)CC5)cc4)c3)c(OCCOC)cc21,,"healthy human, plasma","oral, 35 mg, geometric mean, alone",324 L/h
CCCCCCCCCCCCCCCC(=O)N[C@@H](CCC(=O)NCCCC[C@@H]1NC(=O)[C@H]([C@@H](C)CC)NC(=O)[C@@H](NC(=O)[C@@H]2CCCN2C(=O)[C@H](Cc2ccccc2)NC(=O)[C@H](Cc2c[nH]cn2)NC(=O)[C@@H](NC(=O)[C@H](CC(=O)O)NC(=O)CC(C)C)[C@@H](C)O)CSSC[C@@H](C(=O)N[C@@H](CCCCN)C(N)=O)NC(=O)CNC(=O)[C@H](CCCCN)NC(=O)[C@H](CO)NC(=O)[C@H](CCCNC(=N)N)NC(=O)[C@@H]2CCCN2C(=O)[C@H](CCC(=O)O)NC(=O)[C@H](Cc2ccccc2)NC1=O)C(=O)O,,healthy human,"subcutaneous, 20 mg, aqueous formulation",1.5 L/h
O=C(Nc1nc2cccc(-c3ccc(CN4CCS(=O)(=O)CC4)cc3)n2n1)C1CC1,population PK model,"human, plasma",oral,35 L/h
C[C@H]1Oc2cc(cnc2N)-c2c(nn(C)c2C#N)CN(C)C(=O)c2ccc(F)cc21,,"human patients, plasma","oral, cycle 2 day 1, mean, together with: avelumab",18 L/h
C#Cc1cccc(Nc2ncnc3cc(OCCOC)c(OCCOC)cc23)c1,,human,oral,5.82 L/h
CCN1CCN(Cc2ccc(Nc3ncc(F)c(-c4cc(F)c5nc(C)n(C(C)C)c5c4)n3)nc2)CC1,,fasted healthy human subjects,"oral, 150 mg, 3 × 50 mg capsule",48 L/h
COc1cc(N2CCC3(CCN(C)CC3)CC2)ccc1Nc1ncc(Cl)c(Nc2ccccc2P(C)(C)=O)n1,population PK final model,human,outliers removed,18.9 L/h
Cn1nnc2c(C(N)=O)ncn2c1=O,,"human patients, plasma","oral, 30 mg/m2, day 5, dose level DL4, median, together with: talazoparib 600 µg/m2",6.3 L/h/m2
CCn1cc(C(=O)N2CCOCC2)c(=O)c2cc(NC3Cc4ccccc4C3)cnc21,,"human female, fed, plasma","oral, 900 mg twice daily, day 1, tablet, arithmetic mean",22.3 L/h
CC(C)c1nc(N(C)S(C)(=O)=O)nc(-c2ccc(F)cc2)c1/C=C/[C@@H](O)C[C@@H](O)CC(=O)O,,"human, plasma","10 mg, geometric mean, together with: vepdegestrant 200 mg",260 L/h
